Measured values pooled from the literature.
Compare with care: the assays were run in different laboratories. Several values in a cell are separate wells, animals, samples, runs or records. ± gives the spread as reported. Values after ≈ are worked out from the molar mass of the structure shown.
Organism: Staphylococcus aureus

Compound | test | test system | setting | scale | quantity | value
CC[C@H](C)[C@@H]1NC(=O)[C@H](CO)NC(=O)[C@H](CCCCN)NC(=O)[C@@H]2CSSC[C@@H](C(=O)N[C@@H](Cc3ccc(O)cc3)C(N)=O)NC(=O)[C@H](CCCCN)NC(=O)[C@@H]3CSSC[C@H](NC(=O)[C@H](CCCNC(=N)N)NC(=O)[C@H](CC(C)C)NC(=O)[C@H](CC(=O)O)NC(=O)[C@H](CC(=O)O)NC(=O)[C@H](CCC(=O)O)NC(=O)[C@H](CC(N)=O)NC(=O)[C@H](Cc4c[nH]c5ccccc45)NC(=O)[C@@H]4CCCN4C(=O)CNC(=O)[C@H](CC(N)=O)NC(=O)[C@@H](NC(=O)CNC(=O)[C@H](Cc4ccccc4)NC(=O)CN)CSSC[C@H](NC(=O)[C@H](Cc4ccc(O)cc4)NC(=O)CNC(=O)CNC(=O)[C@H](CCCCN)NC(=O)[C@H](Cc4ccc(O)cc4)NC(=O)CNC(=O)[C@H](CCCCN)NC1=O)C(=O)N[C@@H](C)C(=O)N[C@@H](CCCCN)C(=O)NCC(=O)NCC(=O)N[C@@H](Cc1ccccc1)C(=O)N[C@@H](C(C)C)C(=O)N3)C(=O)N[C@@H](Cc1c[nH]cn1)C(=O)N[C@@H](CC(N)=O)C(=O)N[C@@H](Cc1c[nH]cn1)C(=O)N2 | – | USA300 MRSA | 24 h | – | MBC | 0.5 µM (≈ 2.21 µg/mL)
CC[C@H](C)[C@@H]1NC(=O)[C@@H](CCCNC(=N)N)NC(=O)[C@@H](NC(=O)[C@@H](CC(C)C)NC(=O)[C@H](C)NC(=O)[C@H](C)NC(=O)[C@@H]2CCCN2C(=O)[C@@H](CC(C)C)NC(=O)[C@@H](NC(=O)[C@@H](CCCNC(=N)N)NC(=O)[C@@H](CC(C)C)NC(=O)[C@@H](CC(C)C)NC(=O)[C@@H](NC(=O)[C@@H](CCCNC(=N)N)NC(=O)[C@@H](CC(C)C)NC(=O)[C@@H](NC(=O)[C@@H](NC(=O)CNC(=O)[C@@H](CC(C)C)NC(=O)[C@@H](N)Cc2ccccc2)[C@@H](C)O)C(C)C)C(C)C)C(C)C)CSSC[C@@H](C(=O)O)NC(=O)[C@@H](CCCNC(=N)N)NC(=O)[C@@H](CCCNC(=N)N)NC(=O)[C@H](Cc2ccccc2)NC1=O | decreased | MRSA NCTC 12493 | 1 µM or above | – | intracellular ATP level | decreased
CCCNC(=O)[C@H](Cc1ccc(O)cc1)NC(=O)[C@H](Cc1ccccc1)NC(=O)[C@H](NC(=O)[C@H](NC(=O)[C@H](CC(N)=O)NC(=O)[C@@H](Cc1ccc(O)cc1)NC(=O)[C@@H](CC(C)C)NC)c1ccccc1)c1ccc(O)cc1 | bacterial growth | – | – | – | IC50 | > 40 µM
CC[C@H](C)[C@@H]1NC(=O)[C@H](CO)NC(=O)[C@H](CCCCN)NC(=O)[C@@H]2CSSC[C@@H](C(=O)N[C@@H](Cc3ccc(O)cc3)C(N)=O)NC(=O)[C@H](CCCCN)NC(=O)[C@@H]3CSSC[C@H](NC(=O)[C@H](CCCNC(=N)N)NC(=O)[C@H](CC(C)C)NC(=O)[C@H](CC(=O)O)NC(=O)[C@H](CC(=O)O)NC(=O)[C@H](CCC(=O)O)NC(=O)[C@H](CC(N)=O)NC(=O)[C@H](Cc4c[nH]c5ccccc45)NC(=O)C(C)(CC)NC(=O)CNC(=O)[C@H](CC(N)=O)NC(=O)[C@@H](NC(=O)CNC(=O)[C@H](Cc4ccccc4)NC(=O)CN)CSSC[C@H](NC(=O)[C@H](Cc4ccc(O)cc4)NC(=O)CNC(=O)CNC(=O)[C@H](CCCCN)NC(=O)[C@H](Cc4ccc(O)cc4)NC(=O)[C@H]4CCCN4C(=O)[C@@H]4CCCN4C1=O)C(=O)N[C@@H](C)C(=O)N[C@@H](CCCCN)C(=O)N1CCC[C@@H]1C(=O)NCC(=O)N[C@@H](Cc1ccccc1)C(=O)N[C@@H](C(C)C)C(=O)N3)C(=O)N[C@@H](Cc1c[nH]cn1)C(=O)N[C@@H](CC(N)=O)C(=O)N[C@@H](Cc1c[nH]cn1)C(=O)N2 (some centres unmarked) | – | ATCC 49775 | 24 h | – | MBC | 2 µM (≈ 8.92 µg/mL)
CN[C@H](CC(C)C)C(=O)N[C@H]1C(=O)N[C@@H](CC(N)=O)C(=O)N[C@H]2C(=O)N[C@H]3C(=O)N[C@H](C(=O)N[C@H](C(=O)O)c4cc(O)cc(O)c4-c4cc3ccc4O)[C@H](O)c3ccc(c(Cl)c3)Oc3cc2cc(c3O[C@@H]2O[C@H](CO)[C@@H](O)[C@H](O)[C@H]2O[C@H]2C[C@](C)(NCc3ccc(OCc4cn(CC(=O)N[C@H](C(=O)N[C@@H](CCN)C(=O)N[C@H]5CCNC(=O)[C@H]([C@@H](C)O)NC(=O)[C@H](CCN)NC(=O)[C@H](CCN)NC(=O)[C@H](CC(C)C)NC(=O)[C@@H](CC(C)C)NC(=O)[C@H](CCN)NC5=O)[C@@H](C)O)nn4)c(OC)c3)[C@H](O)[C@H](C)O2)Oc2ccc(cc2Cl)[C@H]1O | broth microdilution | VISA NRS402, tryptic soy broth | 20 to 24 h, 37 °C, 0.002% polysorbate 80 | – | MIC | 8 µg/mL (≈ 3.04 µM)
O=CCNCCOn1c(=O)n(OCCNCCO)c(=O)n(OCCNCCOn2c(=O)n(OCCNCCO)c(=O)n(OCCNCCO)c2=O)c1=O | broth microdilution | – | – | – | MLC | 4 ± 1 µg/mL (≈ 5.2 µM)
COc1cc(OC)cc(B(O)O)c1 | crystal violet | USA300 wild type | 1 µM | relative to: wild type untreated | biofilm formation | 77% and 81.8% and 83%
Cc1ccc2nc(C)c(C(=O)C(=O)NCc3ccccc3)n2c1 | microbial growth | SG511 | 2 mM, 20 h | – | inhibition zone | 0 mm
CCCC(=O)OCCSCCC(=O)N[C@H](CCN)C(=O)N[C@@H](CCN)C(=O)N[C@@H](CCN)C(=O)N[C@@H](CC(C)C)C(=O)N[C@H](Cc1ccccc1)C(=O)N[C@@H](CCN)C(=O)N[C@@H](CCN)C(=O)N[C@@H](CC(C)C)C(N)=O | – | ATCC 6538 | 24 h, 37 °C | – | MBC | 128 µM (≈ 140 µg/mL)
CC(C)[C@H]1NC(=O)CNC(=O)[C@H](CO)NC(=O)[C@@H](Cc2c(-c3ccc(-c4ccc5ccccc5c4)cc3)[nH]c3ccccc23)NC(=O)[C@@H](CO)NC(=O)[C@@H](C(C)C)NC(=O)[C@H](Cc2ccccc2)NC1=O | broth dilution | – | – | – | MIC90 | > 50 µM
Cc1ccc(CNC(=O)C(=O)c2c(C)nc3ccc(C)cn23)cc1 | microbial growth | SG511 | 2 mM, 20 h | – | inhibition zone | 0 mm
N=C(N)NCCC[C@H](NC(=O)[C@H](CCCNC(=N)N)NC(=O)[C@H](CCCNC(=N)N)NC(=O)[C@H](CCC(N)=O)NC(=O)[C@H](CCCNC(=N)N)NC(=O)[C@H](CCCNC(=N)N)NC(=O)[C@H](CCCCN)NC(=O)[C@H](CCCCN)NC(=O)[C@H](CCCNC(=N)N)NC(=O)CNC(=O)[C@H](Cc1ccc(O)cc1)NC(=O)[C@H](Cc1ccccc1)NC(=O)[C@H](Cc1ccccc1)NC(=O)[C@H](Cc1ccccc1)NC(=O)OCC1c2ccccc2-c2ccccc21)C(=O)O | – | 29213 | 1, 2, 4 × MIC, 0.5 h, 37 °C | – | intracellular ATP level | decreased
CC(C)[C@H]1NC(=O)[C@H](Cc2ccccc2)NC(=O)[C@@H](C(C)C)NC(=O)[C@@H](C)NC(=O)[C@H](CO)NC(=O)[C@@H](Cc2c(-c3ccc(-c4ccccc4)c4ccccc34)[nH]c3ccccc23)NC(=O)[C@@H](CO)NC1=O | broth dilution | – | – | – | MIC90 | > 50 µM
CCCNC(=O)[C@H](Cc1ccc(O)cc1)NC(=O)[C@@H](NC(=O)[C@H](NC(=O)[C@H](NC(=O)[C@H](CC(N)=O)NC(=O)[C@@H](Cc1ccc(O)cc1)NC(=O)[C@@H](CC(C)C)NC)c1ccc(O)cc1)c1ccc(O)cc1)c1ccc(O)cc1 | bacterial growth | – | – | – | IC50 | > 40 µM
CC1COC2=C1C(=O)C(=O)c1c2ccc2c1C(OC(=O)CNC(=O)C(N)CO)CCC2(C)C (mixture of isomers) | – | – | 10 µmol/mL, 48 h, 10 µL on 6 mm disc | – | inhibition zone diameter | 25 ± 0.9 mm
OB(O)c1ccc(C(F)(F)F)s1 | OD600 | USA300 fphE::Tn transposon mutant | 10 µM | relative to: wild type | growth | 70.9% and 55.5% and 74.7% and 71.1% and 67.7% and 59.8%
CCCCCCCCCC(=O)OCCSC[C@H](N)C(=O)N[C@H](CCN)C(=O)N[C@@H](CCN)C(=O)N[C@@H](CCN)C(=O)N[C@@H](CC(C)C)C(=O)N[C@H](Cc1ccccc1)C(=O)N[C@@H](CCN)C(=O)N[C@@H](CCN)C(=O)N[C@@H](CC(C)C)C(N)=O | – | ATCC 6538 | 24 h, 37 °C | – | MBC | 8 µM (≈ 9.54 µg/mL)
CC(C)[C@H]1NC(=O)[C@H](Cc2ccc(O)cc2)NC(=O)[C@@H](C(C)C)NC(=O)[C@@H](C)NC(=O)[C@H](CO)NC(=O)[C@@H](Cc2c(-c3ccc(-c4ccc5ccccc5c4)cc3)[nH]c3ccccc23)NC(=O)[C@@H](CO)NC1=O | broth dilution | – | – | – | MIC90 | > 50 µM
CC[C@H](C)[C@H](NC(=O)[C@H](CC(C)C)NC(=O)[C@H](CC(=O)O)NC(=O)[C@H](CCCNC(=N)N)NC(=O)[C@H](Cc1c[nH]c2ccccc12)NC(=O)[C@@H](N)CC(C)C)C(=O)N[C@@H](CS)C(=O)N[C@@H](CC(C)C)C(=O)N[C@@H](CS)C(=O)N[C@@H](CCCNC(=N)N)C(=O)N[C@@H](CC(N)=O)C(=O)N[C@@H](CCCNC(=N)N)C(=O)N[C@@H](CCCNC(=N)N)C(=O)N[C@@H](CS)C(=O)N[C@@H](CC(N)=O)C(=O)N[C@@H](CCCNC(=N)N)C(=O)NCC(=O)N[C@@H](CCC(N)=O)C(=O)N[C@@H](CC(C)C)C(=O)N[C@@H](Cc1ccccc1)C(=O)N1CCC[C@H]1C(=O)NCC(=O)N[C@@H](Cc1c[nH]c2ccccc12)C(=O)N[C@@H](CS)C(=O)N1CCC[C@H]1C(=O)NCC(=O)N[C@@H](Cc1c[nH]c2ccccc12)C(=O)N[C@@H](Cc1c[nH]c2ccccc12)C(=O)N[C@@H](CC(C)C)C(=O)N[C@@H](CCCNC(=N)N)C(=O)N[C@@H](CS)C(=O)N[C@@H](CS)C(=O)N[C@@H](CCCNC(=N)N)C(=O)N[C@@H](CCCNC(=N)N)C(N)=O | – | – | 50 µg/mL, before trypsin treatment | – | bactericidal rate | 100%
CC(N)C(O)CCCCCCCCCCCCCCC(=O)CCCCCCCC(O)C(C)N (centres unmarked) | resazurin | ATCC 12600 | 50 µM | – | growth inhibition | -6 ± 6.91%
